Assay results pooled from the literature.
Lines come from different studies, so protocols differ. “And” joins repeats or separate records; there may be more than shown. ± marks the error that the study gave.
CHRM1: Muscarinic acetylcholine receptor M1 (CHRM1, Homo sapiens, UniProt P11229)
Sequence of UniProt P11229 (whole entry, looked up): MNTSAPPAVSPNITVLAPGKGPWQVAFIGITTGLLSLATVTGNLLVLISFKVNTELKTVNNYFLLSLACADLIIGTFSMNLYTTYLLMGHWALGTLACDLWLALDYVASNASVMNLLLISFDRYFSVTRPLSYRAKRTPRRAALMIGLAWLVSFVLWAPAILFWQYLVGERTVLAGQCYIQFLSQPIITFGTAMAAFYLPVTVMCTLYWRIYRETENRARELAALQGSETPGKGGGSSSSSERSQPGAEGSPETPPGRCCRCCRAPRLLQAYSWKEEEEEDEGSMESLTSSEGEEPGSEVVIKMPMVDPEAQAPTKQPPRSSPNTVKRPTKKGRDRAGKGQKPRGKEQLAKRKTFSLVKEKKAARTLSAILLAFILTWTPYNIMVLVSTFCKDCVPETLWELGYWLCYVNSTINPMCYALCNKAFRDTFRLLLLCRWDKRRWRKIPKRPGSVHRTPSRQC
RIPK2: Receptor-interacting serine/threonine-protein kinase 2 (RIPK2, Homo sapiens, UniProt O43353)
Sequence of UniProt P42336 (whole entry, looked up): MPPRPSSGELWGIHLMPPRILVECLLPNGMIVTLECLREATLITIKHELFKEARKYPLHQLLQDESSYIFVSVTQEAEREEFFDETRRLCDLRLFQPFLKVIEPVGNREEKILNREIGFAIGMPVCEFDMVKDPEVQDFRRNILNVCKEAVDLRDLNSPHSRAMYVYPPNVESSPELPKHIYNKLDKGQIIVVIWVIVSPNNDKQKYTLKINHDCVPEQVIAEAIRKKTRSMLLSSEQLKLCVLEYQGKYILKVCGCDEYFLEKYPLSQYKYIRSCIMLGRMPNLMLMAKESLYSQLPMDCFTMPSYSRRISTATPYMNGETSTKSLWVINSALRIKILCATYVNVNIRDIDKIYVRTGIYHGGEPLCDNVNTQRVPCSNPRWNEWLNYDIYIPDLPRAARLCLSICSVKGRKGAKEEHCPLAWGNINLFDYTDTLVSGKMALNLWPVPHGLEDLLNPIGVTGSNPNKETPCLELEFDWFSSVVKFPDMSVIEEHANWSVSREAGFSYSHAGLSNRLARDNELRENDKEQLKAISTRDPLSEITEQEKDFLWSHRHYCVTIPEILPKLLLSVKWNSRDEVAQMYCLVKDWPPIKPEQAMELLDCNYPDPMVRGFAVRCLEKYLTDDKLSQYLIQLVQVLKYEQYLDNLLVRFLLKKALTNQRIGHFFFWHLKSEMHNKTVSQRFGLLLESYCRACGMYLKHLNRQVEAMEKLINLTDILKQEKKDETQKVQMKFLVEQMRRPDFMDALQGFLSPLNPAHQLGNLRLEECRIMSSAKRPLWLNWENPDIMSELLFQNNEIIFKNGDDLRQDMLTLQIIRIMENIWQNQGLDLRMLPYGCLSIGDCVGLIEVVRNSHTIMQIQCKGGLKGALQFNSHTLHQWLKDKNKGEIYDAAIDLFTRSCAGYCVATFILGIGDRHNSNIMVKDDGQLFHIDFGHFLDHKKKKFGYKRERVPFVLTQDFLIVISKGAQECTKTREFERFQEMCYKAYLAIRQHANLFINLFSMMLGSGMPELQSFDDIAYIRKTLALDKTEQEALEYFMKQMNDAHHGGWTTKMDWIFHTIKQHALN
Sequence of UniProt O43353 (whole entry, looked up): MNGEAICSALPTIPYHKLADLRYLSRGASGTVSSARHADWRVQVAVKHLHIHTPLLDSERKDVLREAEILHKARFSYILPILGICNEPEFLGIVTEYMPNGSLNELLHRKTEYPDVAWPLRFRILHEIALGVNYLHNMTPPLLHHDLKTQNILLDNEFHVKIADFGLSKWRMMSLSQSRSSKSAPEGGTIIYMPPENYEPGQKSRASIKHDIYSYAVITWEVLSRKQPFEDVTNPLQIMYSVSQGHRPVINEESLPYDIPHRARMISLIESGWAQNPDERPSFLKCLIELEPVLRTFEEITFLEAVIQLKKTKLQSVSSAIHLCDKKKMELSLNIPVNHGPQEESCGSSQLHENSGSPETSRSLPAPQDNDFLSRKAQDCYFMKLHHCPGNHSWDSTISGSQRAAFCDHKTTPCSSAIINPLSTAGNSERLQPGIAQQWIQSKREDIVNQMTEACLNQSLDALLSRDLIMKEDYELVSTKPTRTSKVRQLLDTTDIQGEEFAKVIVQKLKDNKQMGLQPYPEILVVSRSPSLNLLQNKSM
Sequence of UniProt P40763 (whole entry, looked up): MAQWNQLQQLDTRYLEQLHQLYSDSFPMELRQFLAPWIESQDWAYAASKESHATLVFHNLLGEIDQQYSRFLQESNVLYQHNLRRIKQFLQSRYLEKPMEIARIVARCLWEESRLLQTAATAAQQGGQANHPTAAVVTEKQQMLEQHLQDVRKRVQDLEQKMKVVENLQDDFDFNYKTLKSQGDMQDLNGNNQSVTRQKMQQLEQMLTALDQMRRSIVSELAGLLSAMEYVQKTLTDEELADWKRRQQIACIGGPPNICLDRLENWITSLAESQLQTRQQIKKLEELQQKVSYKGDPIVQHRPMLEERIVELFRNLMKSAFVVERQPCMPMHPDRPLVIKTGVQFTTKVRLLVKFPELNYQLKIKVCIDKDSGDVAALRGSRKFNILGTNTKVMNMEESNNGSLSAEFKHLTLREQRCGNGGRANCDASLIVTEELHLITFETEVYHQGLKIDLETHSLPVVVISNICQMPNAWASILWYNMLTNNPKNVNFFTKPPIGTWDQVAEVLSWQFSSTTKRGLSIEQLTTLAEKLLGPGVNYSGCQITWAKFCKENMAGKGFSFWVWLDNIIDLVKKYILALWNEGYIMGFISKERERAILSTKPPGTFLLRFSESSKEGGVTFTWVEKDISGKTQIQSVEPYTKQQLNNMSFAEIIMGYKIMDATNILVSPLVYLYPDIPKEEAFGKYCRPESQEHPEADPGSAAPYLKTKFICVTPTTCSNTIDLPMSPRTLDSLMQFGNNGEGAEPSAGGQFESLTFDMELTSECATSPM
Sequence of UniProt P37353 (whole entry, looked up): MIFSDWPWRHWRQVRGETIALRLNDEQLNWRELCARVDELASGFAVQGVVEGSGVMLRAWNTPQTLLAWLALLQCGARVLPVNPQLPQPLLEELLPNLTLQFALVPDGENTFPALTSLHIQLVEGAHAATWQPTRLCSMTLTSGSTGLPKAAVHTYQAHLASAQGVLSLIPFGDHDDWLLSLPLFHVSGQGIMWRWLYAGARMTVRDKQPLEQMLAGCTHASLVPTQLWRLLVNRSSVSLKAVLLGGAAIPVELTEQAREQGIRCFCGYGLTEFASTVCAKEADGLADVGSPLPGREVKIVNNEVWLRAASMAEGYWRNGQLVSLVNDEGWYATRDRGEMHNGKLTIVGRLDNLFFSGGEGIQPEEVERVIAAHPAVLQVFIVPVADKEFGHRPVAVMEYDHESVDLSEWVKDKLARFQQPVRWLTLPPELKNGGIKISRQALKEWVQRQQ
Sequence of UniProt P34914 (whole entry, looked up): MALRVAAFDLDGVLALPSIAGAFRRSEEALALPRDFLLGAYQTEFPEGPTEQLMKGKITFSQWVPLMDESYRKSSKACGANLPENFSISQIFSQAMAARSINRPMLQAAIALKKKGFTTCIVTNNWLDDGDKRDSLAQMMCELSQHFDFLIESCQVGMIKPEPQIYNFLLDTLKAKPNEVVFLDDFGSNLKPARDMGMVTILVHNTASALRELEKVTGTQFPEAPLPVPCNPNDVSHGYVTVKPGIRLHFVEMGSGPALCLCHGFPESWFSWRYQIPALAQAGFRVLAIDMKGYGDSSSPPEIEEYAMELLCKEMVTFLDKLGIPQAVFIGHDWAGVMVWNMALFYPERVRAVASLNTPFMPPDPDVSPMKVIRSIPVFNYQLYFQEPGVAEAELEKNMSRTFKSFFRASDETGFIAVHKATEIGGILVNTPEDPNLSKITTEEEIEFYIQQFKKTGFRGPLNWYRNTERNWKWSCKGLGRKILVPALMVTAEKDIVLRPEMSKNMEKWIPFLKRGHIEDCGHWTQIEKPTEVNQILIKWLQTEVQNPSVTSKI
Sequence of UniProt P09769 (whole entry, looked up): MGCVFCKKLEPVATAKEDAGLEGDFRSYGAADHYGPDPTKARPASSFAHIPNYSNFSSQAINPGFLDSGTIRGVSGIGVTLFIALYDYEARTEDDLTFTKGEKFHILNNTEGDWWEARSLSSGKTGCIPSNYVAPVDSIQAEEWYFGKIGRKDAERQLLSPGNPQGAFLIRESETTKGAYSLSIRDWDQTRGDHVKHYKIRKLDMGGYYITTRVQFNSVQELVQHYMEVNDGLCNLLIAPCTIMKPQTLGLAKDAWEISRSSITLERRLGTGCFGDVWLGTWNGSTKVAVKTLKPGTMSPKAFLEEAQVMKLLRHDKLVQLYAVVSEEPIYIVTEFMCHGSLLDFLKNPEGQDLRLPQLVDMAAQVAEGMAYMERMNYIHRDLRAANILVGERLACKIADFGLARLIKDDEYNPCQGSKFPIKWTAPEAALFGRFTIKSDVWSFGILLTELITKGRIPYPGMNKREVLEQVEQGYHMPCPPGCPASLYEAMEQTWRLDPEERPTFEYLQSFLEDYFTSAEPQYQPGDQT
Sequence of UniProt P43341 (whole entry, looked up): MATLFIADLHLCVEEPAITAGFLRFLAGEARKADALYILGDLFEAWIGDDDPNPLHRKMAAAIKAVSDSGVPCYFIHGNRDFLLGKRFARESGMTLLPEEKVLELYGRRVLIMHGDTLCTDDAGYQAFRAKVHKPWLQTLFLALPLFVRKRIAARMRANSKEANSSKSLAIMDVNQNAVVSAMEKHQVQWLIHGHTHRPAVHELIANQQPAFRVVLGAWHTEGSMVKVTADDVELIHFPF
Sequence of UniProt P30542 (whole entry, looked up): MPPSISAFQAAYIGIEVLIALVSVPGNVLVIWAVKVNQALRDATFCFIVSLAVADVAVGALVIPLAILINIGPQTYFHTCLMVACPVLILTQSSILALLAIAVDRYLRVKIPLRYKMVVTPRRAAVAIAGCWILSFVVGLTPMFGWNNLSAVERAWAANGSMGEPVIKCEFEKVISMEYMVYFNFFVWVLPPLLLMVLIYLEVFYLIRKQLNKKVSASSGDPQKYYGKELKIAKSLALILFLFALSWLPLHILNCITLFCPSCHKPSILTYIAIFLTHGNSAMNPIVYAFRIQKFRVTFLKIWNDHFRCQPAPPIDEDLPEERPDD

SMILES	target or system	assay	system	setting	scale	measurement	result
CCNC(=O)[C@H]1O[C@@H](n2cnc3c(NCCCCCCCCNC(=O)CCCCCNC(=O)COc4ccc(/C=C/C5=[N+]6C(=Cc7ccc(-c8cccs8)n7[B-]6(F)F)C=C5)cc4)ncnc32)[C@H](O)[C@@H]1O	ADORA1 (Homo sapiens, UniProt P30542)	CRE reporter gene, agonist	CHO-A1	Gi-mediated inhibition, added: forskolin		IC50	47.9 nM
CN(c1ccccc1C(=O)N1CCc2cc(S(=O)(=O)N3CCN(c4cc(C(F)(F)F)cc(Cl)n4)CC3)ccc21)S(C)(=O)=O	UDP-2,3-diacylglucosamine hydrolase (UniProt P43341)	enzyme activity, inhibitor, absorbance				IC50	0.058 nM
N=C(NCCCCC(N)C(N)=O)NCCSCC1OC(n2cnc3c(N)ncnc32)C(O)C1O (stereo not drawn)	EHMT2 (Homo sapiens, UniProt Q96KQ7)	enzyme activity, inhibitor, fluorescence				IC50	> 100000 nM
CCCCCCCCCCCCCCCCC1=C[C@H](C(=O)OCC)[C@H]2C(=O)C(C(=O)OC)=C(CCCCCCCCCCCCCCCC)[C@H]2[C@H]1C(=O)OC	protein kinase A	inhibitor				IC50	> 50000 nM
CNC(=O)C1CCN(c2ccccc2NC(=O)c2ccc(-c3cc(O)ccc3C)c(C)c2)CC1	FGR (Homo sapiens, UniProt P09769)	target engagement in cells, BRET				IC50	5440 nM
COc1ccc(C2Sc3ccccc3NC3=C2C(=O)c2ccccc23)cc1 (racemic)	MT-CYB, bc1 complex (Plasmodium falciparum, UniProt Q02768)	enzyme activity, inhibitor	purified mitochondrial fractions			IC50	20 ± 2.5 nM
C=CS(=O)(=O)Nc1ccc2nc(NCCCCCN(C)C)nc(NCCCCCCN(C)C)c2c1	SETDB1 (Homo sapiens, UniProt Q15047)	enzyme activity, inhibitor				IC50	39900 nM
COc1ccc(OCC(=O)c2ccc(O)c(C)c2O)cc1	ESR2 (Homo sapiens, UniProt Q92731)	coactivator recruitment, antagonist				IC50	7290 nM
N=C(N)NCCC[C@H](NC(=O)[C@H](CC(=O)O)NC(=O)[C@@H]1CSCCCC(=O)NCC(=O)N[C@@H](Cc2c[nH]cn2)C(=O)N[C@H](Cc2ccccc2)C(=O)N[C@@H](CCCNC(=N)N)C(=O)N[C@@H](Cc2c[nH]c3ccccc23)C(=O)N1)C(=O)N[C@@H](Cc1ccccc1)C(=O)NCC(N)=O	MC3R (Homo sapiens, UniProt P41968)	ligand displacement, radioligand				IC50	8500 nM
CCCCOc1ccc(C(=O)OCCN2CC=CCC2)cc1	CHRM1	inositol phosphate accumulation, antagonist, Schild analysis	CHO	added: carbachol		Kb	39800 nM
Cc1ccc(NC(=O)Nc2cnn(-c3cccc(C(=O)Nc4ccnc(C)c4)c3)c2)cc1	Mitogen-activated protein kinase 10, isoform alpha-1 (MAPK10, Homo sapiens, UniProt P53779, L144I)	enzyme activity, inhibitor, HTRF		added: 1.25 µM ATP		IC50	> 10000 nM
CC(C)=CCc1c(O)c(CC=C(C)C)c2occ(-c3ccc(O)c(O)c3)c(=O)c2c1O	Beta-glucuronidase (uidA, Escherichia coli, UniProt P05804)	enzyme activity, inhibitor				IC50	3890 nM
CCCCCCCCCCCC(=O)N[C@H](CO)C[C@@H](O)c1ccccc1	CERT1 (Homo sapiens, UniProt Q9Y5P4)	target engagement in cells, BRET				IC50	350 nM
CC(=O)Nc1ccc(C(=O)Nc2cc(-c3cccs3)ccc2N)cc1	HDAC7 (Homo sapiens, UniProt Q8WUI4)	deacetylase activity, inhibitor, recombinant enzyme				IC50	> 30000 nM
CCCCOc1ccc(C(=O)OCC[N+]2(C)CC=CCC2)cc1 (stereo not drawn)	CHRM1	inositol phosphate accumulation, antagonist, Schild analysis	CHO	added: carbachol		Kb	38.9 nM
O=Cc1c(O)ccc2ccccc12	HUVEC	RNA sequencing, measured: TM4SF18		75 µM, 24 h	reference: DMSO	log2 fold change	-3.3
Nc1ncnc2c1ncn2[C@@H]1O[C@H](Cn2nnc(C(O)CCC(=O)c3ccccc3C(=O)O)n2)[C@@H](O)[C@H]1O (stereo partly drawn)	2-succinylbenzoate--CoA ligase (menE, Escherichia coli, UniProt P37353)	enzyme activity, inhibitor, MenB-MenE coupled				IC50	53500 ± 2300 nM
CCOc1cncc(-c2ccc(NC(=O)C(CC)c3ccnc(NS(=O)(=O)C4CC4)n3)nc2)n1 (stereo not drawn)	CTP synthase 1 (Homo sapiens, UniProt P17812, I250T)	cell growth	CTPS-null Jurkat expressing CTP synthase 1	3 d		IC50	1430 nM
NS(=O)(=O)Oc1ccc(CN(c2cc(F)cc(F)c2)n2cnnc2)cc1	Steryl-sulfatase (STS, Homo sapiens, UniProt P08842)	enzyme activity, inhibitor	JEG-3 intact monolayers			IC50	10 to 100 nM
O=c1cc(-c2ccc(O)cc2)oc2cc(O)ccc12	ALOX5 (Homo sapiens, UniProt P09917)	enzyme activity, inhibitor, HPLC				IC50	5000 nM

SMILES	target or system	assay	system	setting	scale	measurement	result
COc1cc2c(NC3CCN(C(C)C)CC3)cc(N3CCOCC3)nc2cc1OCCCN1CCCC1	EHMT1 (Homo sapiens, UniProt Q9H9B1)	enzyme activity, inhibitor				IC50	6 nM
CC[C@H](C)[C@H](NC(=O)[C@@H](C[C@H](O)[C@@H](N)COc1ccc(-c2ccc(F)cc2)c(OCCCOC)c1)OC)C(=O)NCc1ccc(Cl)cc1	Beta-secretase 1 (BACE1, Homo sapiens, UniProt P56817)	enzyme activity, inhibitor		pH 4.5		IC50	1200 nM
Cc1oc2ccc(OCC(=O)O)cc2c1C(=O)OC(C)C	STAT3 (Homo sapiens, UniProt P40763)	protein-protein interaction, inhibitor, ELISA				IC50	~15000 nM
CCNC(=O)NC1CC=C(c2cc3c(Nc4cc5ncsc5cc4F)ncnc3s2)CC1 (racemic)	RIPK2	enzyme activity, inhibitor				IC50	10 nM
COc1ccc(C(=O)/C=C/c2cccc3ccccc23)cc1	ABCG2 (Homo sapiens, UniProt Q9UNQ0)	mitoxantrone efflux, inhibitor, flow cytometry	HEK293 transfected	30 min, 37 °C, added: mitoxantrone 5 µM		IC50	13600 nM
CC(C)(C)NC(=O)NC1CC=C(c2cc3c(Nc4cc5ncsc5cc4F)ncnc3s2)CC1 (racemic)	RIPK2	enzyme activity, inhibitor				IC50	9 nM
CC[C@H]1[C@@H](O)[C@@H]2[C@H](CC[C@]3(C)[C@@H]([C@H](C)CCOS(=O)(=O)[O-])CC[C@@H]23)[C@@]2(C)CC[C@@H](O)C[C@@H]12.[Na+]			ob/ob NASH mice, plasma	oral, 3 mg/kg once daily, 8 wk		plasma triglycerides	0.6 mmol/L
CCC(=O)NC1CN(CCCCC2CCN(CC(=O)N3c4ccccc4NC(=O)c4ccccc43)CC2)CCN(CC(=O)N2CCC(N3CCC(n4c(=O)[nH]c5ccccc54)CC3)CC2)C1 (stereo not drawn)	CHRM1	ligand displacement, radioligand				Ki	16.6 nM
COC(=O)CCSc1nc2n(n1)C(c1cccc(OC)c1)C(C(=O)Nc1cccnc1)=C(C)N2 (stereo not drawn)	Phosphatidylinositol 4,5-bisphosphate 3-kinase catalytic subunit alpha isoform, with p85 (PIK3CA, Homo sapiens, UniProt P42336)	enzyme activity, inhibitor, ADP detection				IC50	516 nM
O=C(O)c1c(CC(O)c2ccc(O)cc2)cccc1OC1OC(CO)C(O)C(O)C1O (stereo not drawn)	PTPN1 (Homo sapiens, UniProt P18031)	enzyme activity, inhibitor, absorbance				IC50	> 100000 nM
O=C1NC(=S)S/C1=C\c1ccc(O)c([N+](=O)[O-])c1	PIK3CA (Homo sapiens, UniProt P42336)	enzyme activity, inhibitor, radiometric				IC50	11000 nM
CC12CC3CC(C)(C1)CC(NC(=O)NC14CC5(C)CC(C)(CC(C)(C5)C1)C4)(C3)C2	Ephx2 (Mus musculus, UniProt P34914)	enzyme activity, inhibitor, fluorescence				IC50	11400 nM
CC1(C)C2CC3C(c4ccccc4)c4c(O)c(C=O)c(O)c(C=O)c4OC3(C)C1C2 (single isomer, unassigned; (+))	PFKP (Homo sapiens, UniProt Q01813)	probe labelling, inhibitor, gel-based ABPP	HEK293T cell lysate	apparent		IC50	1500 nM
Nc1c2nc(N3CCCCC3)n3c2nc[n+]1[C@@H]1O[C@H](COP(=O)(O)OP(=O)([O-])OC[C@H]2O[C@@H]3[C@H](O)[C@@H]2O)[C@@H](O)[C@H]1O	cADPR receptor, sea urchin	cADPR-induced Ca2+ release, antagonist, fluo-3 fluorimetry	sea urchin egg homogenate 2.5%	up to 3 µM		IC50	no effect
O=C(NCc1cc(C2CC2)on1)c1cccc(-c2ccc3c(c2)CCO3)c1	Acetyl-CoA synthetase (Cryptococcus neoformans, UniProt J9VFT1)					IC50	> 50000 nM
O=C(O)CC(NS(=O)(=O)c1cccc2nsnc12)C(=O)O (stereo not drawn)	P2Y purinoceptor 14 (P2RY14, Homo sapiens, UniProt Q15391)	antagonist				IC50	16.5 nM
Cc1ccc(S(=O)(=O)N2N=Cc3ccsc3B2O)cc1	Neutrophil elastase (ELANE, Homo sapiens, UniProt P08246)	enzyme activity, inhibitor, fluorescence				IC50	3400 nM
COC(=O)C1C(c2nc3cc(OC)ccc3[nH]2)=Cc2cc3c(cc2C1c1cc(OC)c(OC)c(OC)c1)OCO3 (stereo not drawn)	tubulin alpha/beta (Leishmania infantum, UniProt A0A381MCS3+A4HTR0)	tubulin polymerization, inhibitor		37 °C		IC50	700 nM and 660 nM
CN1CCC=C(c2nsnc2OCCCCCNC(=O)CCCCCCC(=O)NCCCCCOc2nsnc2C2=CCCN(C)C2)C1	CHRM1	ligand displacement, radioligand				Ki	5.01 nM

Repeated from above:
SMILES	target or system	assay	system	setting	scale	measurement	result
CCCCOc1ccc(C(=O)OCCN2CC=CCC2)cc1	CHRM1	inositol phosphate accumulation, antagonist, Schild analysis	CHO	added: carbachol		Kb	39800 nM
CC(=O)Nc1ccc(C(=O)Nc2cc(-c3cccs3)ccc2N)cc1	HDAC7 (Homo sapiens, UniProt Q8WUI4)	deacetylase activity, inhibitor, recombinant enzyme				IC50	> 30000 nM
